# Results of several laboratories.
# Compare with care: the assays were run in different laboratories. “And” joins repeats or separate records; there may be more than shown. ± gives the spread as reported.
# TDP1: Tyrosyl-DNA phosphodiesterase 1 (TDP1, Homo sapiens, UniProt Q9NUW8)
# Chain of UniProt Q9NUW8 (whole entry, looked up): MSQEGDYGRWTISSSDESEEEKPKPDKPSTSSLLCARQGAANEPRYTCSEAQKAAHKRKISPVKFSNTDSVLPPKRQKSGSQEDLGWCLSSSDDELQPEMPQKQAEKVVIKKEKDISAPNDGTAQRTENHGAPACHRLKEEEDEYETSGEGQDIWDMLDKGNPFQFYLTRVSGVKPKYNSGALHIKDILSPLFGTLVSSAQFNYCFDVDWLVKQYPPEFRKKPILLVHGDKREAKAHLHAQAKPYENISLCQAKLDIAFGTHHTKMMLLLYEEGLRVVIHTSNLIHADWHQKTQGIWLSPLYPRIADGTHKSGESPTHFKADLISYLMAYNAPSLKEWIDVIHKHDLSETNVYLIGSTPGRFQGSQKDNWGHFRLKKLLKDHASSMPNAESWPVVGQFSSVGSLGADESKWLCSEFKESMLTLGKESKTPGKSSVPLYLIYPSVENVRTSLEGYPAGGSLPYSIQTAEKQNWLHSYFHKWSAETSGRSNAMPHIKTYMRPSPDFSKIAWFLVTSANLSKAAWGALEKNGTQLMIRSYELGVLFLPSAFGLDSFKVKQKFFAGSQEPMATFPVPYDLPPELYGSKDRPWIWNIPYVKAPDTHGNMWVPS
# Chain of UniProt P0A7A9 (whole entry, looked up): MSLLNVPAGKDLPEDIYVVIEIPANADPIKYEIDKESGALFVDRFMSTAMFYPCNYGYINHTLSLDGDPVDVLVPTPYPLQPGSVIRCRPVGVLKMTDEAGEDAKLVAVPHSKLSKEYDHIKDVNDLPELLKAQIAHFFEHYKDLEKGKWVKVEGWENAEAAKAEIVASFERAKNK
SMILES,tested on,test,test system,conditions,how to read,quantity,result
C=C(NC(=O)c1csc(-c2nc3c(cc2O)-c2nc(cs2)C(=O)NC(C(C)O)C(=O)NC(=C(C)OC)c2nc(cs2)C(=O)NC2c4nc(cs4)C(=O)NC(COC(=O)c4c5c6c(cccc6n4O)COC(=O)C(OC4CC(C)(O)C(N(C)C)C(C)O4)C2OC5)c2nc-3cs2)n1)C(N)=O (centres unmarked),Streptococcus pneumoniae,,"penicillin-resistant, 10 isolates",serum 25%,,MIC50,7.8 ng/mL
CC(=O)O[C@@H]1[C@@H](OC(C)=O)[C@H](Sc2sc(C(=O)c3ccc(Br)cc3)c(N)c2-c2nc3ccccc3s2)OC[C@@H]1OC(C)=O,coxsackievirus B4,plaque reduction,,"non-toxic dose NG, mean over three titres",,viral reduction,40%
Nc1nc(-c2ccccc2)nc2[nH]nc(Nc3ccccc3F)c12,rhinovirus A2,viral cytopathic effect,HeLa,,,IC50,58.4 µM
FC(F)(F)c1cccc(CNc2nc(NC3CCN(Cc4ccccc4)CC3)c3nc[nH]c3n2)c1,Cryptococcus neoformans,"RNA-seq, item: MIPS (CNAG_01539)",wild type,"48 µg/mL, 3 h",reference: untreated wild type,log2 fold change,1.93
N#CCCn1cc(C=NOCc2ccc(-c3nc4cc(-c5ccccc5)ccn4c3Nc3ccc(C(=O)O)cc3)cc2)c2ccccc21 (mixture of isomers),TDP1,"enzyme activity, inhibitor",,"100 µM, unpurified compound",,inhibition,49.7%
Cc1ncsc1-c1ccc(C(C)NC(=O)C2CC(O)CN2C(=O)C(NC(=O)CCCCCCCCCCN2CCCC(Nc3ncc(Cl)c(Nc4ccccc4S(=O)(=O)C(C)C)n3)C2)C(C)(C)C)cc1 (centres unmarked),22Rv1,"RNA-seq, item: ZSWIM9 mRNA",,concentration not given,reference: DMSO,log2 fold change,-3.18
Cc1cccc2c1N(C(=O)n1ccnn1)CC2,Arabidopsis thaliana,,"kai2 mutant, seeds","30 µM, 72 h",,germination rate,80% and 61.1% and 52% and 69.7% and 53.5% and 50.9%
CC(=O)OC[C@H]1O[C@@H](Sc2sc(C(=O)c3ccc(Cl)cc3)c(N)c2-c2nc3ccccc3s2)[C@H](OC(C)=O)[C@@H](OC(C)=O)[C@H]1OC(C)=O,coxsackievirus B4,plaque reduction,,"non-toxic dose NG, mean over three titres",,viral reduction,23.3%
N=C(N)NCCC[C@@H]1NC(=O)[C@H](CCCNC(=N)N)NC(=O)[C@@H](CCCNC(=N)N)NC(=O)[C@@H](CCCNC(=N)N)NC(=O)[C@@H](C(c2ccccc2)c2ccccc2)NC(=O)[C@H](Cc2c[nH]c3ccccc23)NC(=O)[C@@H](C(c2ccccc2)c2ccccc2)NC1=O,Escherichia coli,,ATCC BAA-2452,MIC,,time to complete killing,3 to 4 h
CC=C(C)C(=O)OC1CC2C(C=C(C)C3C(OC(C)=O)CC(=O)C13C)OC(=O)C2C (centres unmarked),Helicobacter pylori,"microbial growth, broth dilution",,1.95 µg/mL,,inhibition,0%
Nc1nc(-c2ccccc2)nc2[nH]nc(Nc3ccc(Cl)cc3)c12,rhinovirus A2,viral cytopathic effect,HeLa,,,IC50,6.03 µM
Cc1cc(C(=O)Nc2nc3cccc(C)c3n2[C@H]2CCCCN(C(=O)/C=C/CN(C)C)C2)ccn1,Trypanosoma brucei brucei,,Lister 427,"50 µM, 0 h, kill kinetics",,proliferation,100%
CC(C)[C@@H]1NC(=O)[C@@H](CCCNC(=N)N)NC(=O)[C@H]([C@@H](C)O)NC(=O)[C@@H](CCCN)NC(=O)[C@H](Cc2ccc(F)c(F)c2)NC(=O)[C@@H](Cc2ccccc2)NC1=O,Balamuthia mandrillaris,"parasite growth, ATP luminescence",,,,IC90,> 20 µM
Nc1c(C(=O)c2ccc(Br)cc2)sc(S)c1-c1nc2ccccc2s1,coxsackievirus B4,plaque reduction,,non-toxic concentration,,viral titre reduction,30%
OC[C@H]1O[C@@H]2O[C@H]3[C@H](O)[C@@H](O)[C@@H](O[C@H]4[C@H](O)[C@@H](O)[C@@H](O[C@H]5[C@H](O)[C@@H](O)[C@@H](O[C@H]6[C@H](O)[C@@H](O)[C@@H](O[C@H]7[C@H](O)[C@@H](O)[C@@H](O[C@H]1[C@H](O)[C@H]2O)O[C@@H]7CO)O[C@@H]6CO)O[C@@H]5CO)O[C@@H]4CO)O[C@@H]3CO,Escherichia coli,"LuxR reporter, antagonist",DH5α sensor strain,"100 µM, with: OHHL 200 nM",,inhibition,2 ± 1%
CNCc1ccc2c(c1)N(C(=O)OCc1c(F)c(F)c(F)c(F)c1F)[C@H](CNC(=N)N)[C@H]2NC(=O)C(=O)Nc1ccc(Cl)c(F)c1,Human immunodeficiency virus 1,"viral infection, Env pseudovirus","TZM-bl, 620345.c01 CRF01_AE",,,IC80,55.7 µM
O=C(O)c1ccc(Nc2c(-c3ccc(CON=Cc4ccc(OCc5ccc6nsnc6c5)cc4)cc3)nc3cc(-c4ccccc4)ccn23)cc1,TDP1,"enzyme activity, inhibitor",,100 µM,,inhibition,75.7%
CC(C)C1=CC2=CCC3C(C)(C(=O)OCCC[N+](C)(C)C)CCCC3(C)C2CC1 (centres unmarked),Escherichia coli,"microbial growth, disc diffusion",ATCC25922,"31.2 µg/disc, 24 h",,inhibition zone,9 mm
COC1CN([C@H]2CC[C@H]([C@@]3(C)Oc4c(Cl)cc(C(=O)NCc5c(SC)cc(C)[nH]c5=O)c(C)c4O3)CC2)C1,,"RNA-seq, item: PGLYRP1","human, whole blood","dose not given, 24 h",reference: pretreatment baseline,log2 fold change,1.07
Cc1ccc(S(=O)(=O)Nn2c3c(cc(-c4nc5ccccc5s4)c2=O)CCCCCC3)cc1,human adenovirus 7,"viral replication, plaque",HEp-2,"non-toxic dose, mean of three titres",,plaque reduction,53.3%
CO[C@@H]1OC[C@@H](O)[C@H](O)[C@H]1O,Helicobacter pylori,"microbial growth, broth dilution",,0.24 µg/mL,,inhibition,0%
Cc1ccc(-c2nc(N)c3c(Nc4ccc(Cl)cc4)n[nH]c3n2)cc1,rhinovirus A2,viral cytopathic effect,HeLa,,,IC50,2.08 µM
CCCCCCCCCC(=O)N[C@@H](Cc1c[nH]c2ccccc12)C(=O)N[C@H](CC(N)=O)C(=O)N[C@@H](CC(=O)O)C(=O)N[C@@H]1C(=O)NCC(=O)N[C@@H](CCCNC(=O)OC2/C=C/CCCCC2)C(=O)N[C@@H](CC(=O)O)C(=O)N[C@H](C)C(=O)N[C@@H](CC(=O)O)C(=O)NCC(=O)N[C@H](CO)C(=O)N[C@@H]([C@H](C)CC(=O)O)C(=O)N[C@@H](CC(=O)c2ccccc2N)C(=O)O[C@@H]1C (some centres unmarked),Staphylococcus aureus,"planktonic bacterial growth, isothermal microcalorimetry",MRSA,"2.0 µg/mL, 24 h, 37 °C, with: TAG hydrogel",,peak heat flow time,0 h
C/C=C(/C)C(=O)O[C@@H]1C=C(C)CC[C@]2(O)[C@@H](C(C)C)CC(=O)[C@]12C,Helicobacter pylori,"microbial growth, broth dilution",,62.5 µg/mL,,inhibition,0%
CC(=O)OC[C@H]1O[C@@H](Sc2sc(C(=O)c3ccc(C)cc3)c(N)c2-c2nc3ccccc3s2)[C@H](OC(C)=O)[C@@H](OC(C)=O)[C@H]1OC(C)=O,human adenovirus 7,plaque reduction,,"non-toxic dose NG, mean over three titres",,viral reduction,10%
CCCCCC[N+](C)(C)CCCCCCCCOc1cc(OCCCCCCCC[N+](C)(C)CCCCCC)cc(OCCCCCCCC[N+](C)(C)CCCCCC)c1.[Br-].[Br-].[Br-],Enterococcus faecalis,,OG1RF,,,MIC,1 µM
CC(C)(C)NCC(SS(=O)(=O)O)c1ccccc1 (centres unmarked),Schistosoma mansoni,,mice,"600 mg/kg single dose, 1248 h, dosed day 7, perfused 52",reference: vehicle,female worm burden reduction,38%
C=C[C@]1(C)C[C@@H](OC(=O)CSc2ccc(NC(=O)c3ccco3)cc2)[C@]2(C)[C@H](C)CC[C@]3(CCC(=O)[C@H]32)[C@@H](C)[C@@H]1O,Mycoplasma gallisepticum,,"infected chickens, lung","intramuscular, 80 mg/kg daily x3, 72 h",,lung mycoplasma count,2.67 log10 CFU/mL and 3.26 log10 CFU/mL and 3.89 log10 CFU/mL and 3.3 log10 CFU/mL and 2.69 log10 CFU/mL and 3 log10 CFU/mL and 2 log10 CFU/mL
COc1ccc(Br)cc1C[N+](C)(C)CCCN1c2ccccc2CCc2ccc(Cl)cc21,"ppa (Escherichia coli, UniProt P0A7A9)","inhibitor, counter-screen, coupling enzyme alone",,,,IC50,28 µM

# Some of these lines once more:
SMILES,tested on,test,test system,conditions,how to read,quantity,result
Nc1nc(-c2ccccc2)nc2[nH]nc(Nc3ccc(Cl)cc3)c12,rhinovirus A2,viral cytopathic effect,HeLa,,,IC50,6.03 µM
Cc1cc(C(=O)Nc2nc3cccc(C)c3n2[C@H]2CCCCN(C(=O)/C=C/CN(C)C)C2)ccn1,Trypanosoma brucei brucei,,Lister 427,"50 µM, 0 h, kill kinetics",,proliferation,100%
CC(C)[C@@H]1NC(=O)[C@@H](CCCNC(=N)N)NC(=O)[C@H]([C@@H](C)O)NC(=O)[C@@H](CCCN)NC(=O)[C@H](Cc2ccc(F)c(F)c2)NC(=O)[C@@H](Cc2ccccc2)NC1=O,Balamuthia mandrillaris,"parasite growth, ATP luminescence",,,,IC90,> 20 µM
Nc1c(C(=O)c2ccc(Br)cc2)sc(S)c1-c1nc2ccccc2s1,coxsackievirus B4,plaque reduction,,non-toxic concentration,,viral titre reduction,30%
